Earlier results, collected from citations in different studies.
Each line is one published result; not all experiments were run side by side.

Molecule	target or system	assay	test system	conditions	endpoint	value
HHIWQNLL	HLA class I histocompatibility antigen, B alpha chain, allele B*39:01 (Homo sapiens, UniProt P01889)	peptide-MHC binding	peptide		IC50	0.136 µM
CC(C)C[C@H](NC(=O)CNC(=O)[C@H](C)NC(=O)[C@H](CC(=O)O)NC(=O)[C@H](CC(=O)O)NC(=O)[C@H](C)NC(=O)[C@@H]1CCCN1C(=O)[C@H](CCCCN)NC(=O)CNC(=O)[C@@H]1CCCN1C(=O)[C@@H]1CCCN1C(=O)[C@@H]1CCCN1C(=O)[C@H](CCC(=O)O)NC(=O)CN)C(=O)N[C@H](C(=O)O)C(C)C			Sprague-Dawley rat	intravenous or intramuscular, dose not given	acute toxicity	not toxic
SMKTRTAWF	HLA class I histocompatibility antigen, B alpha chain, allele B*08:02 (Homo sapiens, UniProt P01889)	peptide-MHC binding	peptide		IC50	0.03 µM
Nc1ccccc1			human serum albumin	concentration not given	HSA binding, literature value	14.1%
KAFSPEVI	HLA class I histocompatibility antigen, B alpha chain, allele B*46:01 (Homo sapiens, UniProt P01889)	peptide-MHC binding	peptide		IC50	1.36 µM
C[C@H](c1ccccc1)n1cncc1C(=O)OCCC(=O)O		loss of righting reflex	Xenopus laevis tadpoles		EC50	2900 µM
WEAWWTEY	HLA class I histocompatibility antigen, B alpha chain, allele B*18:01 (Homo sapiens, UniProt P01889)	peptide-MHC binding	peptide		IC50	0.00204 µM
COC(=O)CCOC(=O)c1cncn1[C@H](C)c1ccccc1		loss of righting reflex	Xenopus laevis tadpoles		EC50	7.5 µM

Repeated from above:
Molecule	target or system	assay	test system	conditions	endpoint	value
Nc1ccccc1			human serum albumin	concentration not given	HSA binding, literature value	14.1%
